{"data": "Measurements of several laboratories", "note": "Compare with care: the assays were run in different laboratories. “And” joins repeats or separate records; there may be more than shown."}
{"SMILES": "C[C@]1(CO)Cc2ncn(-c3ccc(C#N)c(Cl)c3)c2C(=O)O1", "system": "human", "setting": "oral, 10 mg, fasted, single dose, median", "Tmax": "1 h"}
{"SMILES": "O=c1ccc2ncc(=O)n3c2n1C[C@H]3CN1CCC(NCc2cc3c(cn2)OCCC3)CC1", "system": "healthy human volunteers, plasma", "setting": "oral, dose not given, median, together with: rifampicin", "Tmax": "2 h"}
{"SMILES": "OCc1ncc2n1-c1ccc(Cl)cc1C(c1ccccc1F)=NC2", "system": "human, plasma", "setting": "7.5 mg midazolam, day 19, median, metabolite of midazolam, together with: midazolam 7.5 mg alone", "Tmax": "0.5 h"}
{"SMILES": "CCCCCCCCCCC(=O)O[C@H]1CC[C@H]2[C@@H]3CCC4=CC(=O)CC[C@]4(C)[C@H]3CC[C@]12C", "test": "measured: testosterone", "system": "human, plasma", "setting": "oral, 237 mg", "Tmax": "4 h and 3 h"}
{"SMILES": "OCc1ncc2n1-c1ccc(Cl)cc1C(c1ccccc1F)=NC2", "system": "healthy human volunteers, plasma", "setting": "5 mg, day 11, fed, together with: once daily, momelotinib 200 mg, days 4 to 11", "Tmax": "1.5 h"}
{"SMILES": "COC[C@@H](NC(C)=O)C(=O)NCc1ccccc1", "test": "non-compartmental analysis", "system": "human healthy male, plasma", "setting": "oral, 100 mg single", "Tmax": "1 h"}
{"SMILES": "CCOC(=O)C1=C(CN2CCOCC2)NC(c2nccs2)=NC1c1ccc(F)cc1Br (stereo not shown)", "system": "human, healthy", "setting": "high-fat diet", "Tmax": "3.17 h"}
{"SMILES": "O[C@H]1CCCN[C@@H]1CCCn1cnc2c(Cl)c(Cl)ccc21", "system": "healthy human, plasma", "setting": "oral, 150 mg twice daily, steady state", "Tmax": "4 h"}
{"SMILES": "CC(C)c1nc(N(C)S(C)(=O)=O)nc(-c2ccc(F)cc2)c1/C=C/[C@@H](O)C[C@@H](O)CC(=O)O", "system": "healthy human subjects, plasma", "setting": "oral, 20 mg, day 1, alone, median", "Tmax": "4 h"}
{"SMILES": "OCc1ncc2n1-c1ccc(Cl)cc1C(c1ccccc1F)=NC2", "test": "CYP3A4 probe metabolite", "system": "human, plasma", "setting": "oral, 2 mg midazolam, probe cocktail", "Tmax": "≤ 1 h"}
{"SMILES": "C[C@H](NC(=O)c1c(C(F)F)nn(C)c1Oc1cccc(C(F)(F)F)c1)c1ccc(C(=O)O)cc1", "system": "human, plasma", "setting": "750 mg, cycle 1 day 8, median", "Tmax": "2 h"}
{"SMILES": "OCc1ncc2n1-c1ccc(Cl)cc1C(c1ccccc1F)=NC2", "system": "humans, plasma", "setting": "3 mg of midazolam, midazolam alone", "Tmax": "1.5 h"}
{"SMILES": "O=C(O)C(F)(F)C(F)(F)C(F)(F)C(F)(F)C(F)(F)C(F)(F)C(F)(F)F", "test": "two-compartment model", "system": "human, plasma", "setting": "oral, 50 mg weekly", "Tmax": "2 h"}
{"SMILES": "CCN(CC)C(=O)[C@@H]1C=C2c3cccc4[nH]cc(c34)C[C@H]2N(C)C1", "system": "human, plasma", "setting": "dose not given, after placebo pretreatment", "Tmax": "1.7 h"}
{"SMILES": "CC(C)[C@H](N)C(=O)NCCCS(=O)(=O)O", "system": "human, plasma", "setting": "oral, 265 mg twice daily, week 65, steady state", "Tmax": "1.4 h"}
{"SMILES": "COc1ccc(C[C@@H]2NC(=O)[C@H]([C@@H](C)O)NC(=O)[C@@H]3[C@@H]4CCN3C(=O)[C@@H]3Cc5cn(c6ccc(F)cc56)CCCCCCN(Cc5ccc(cc5)CCNC(=O)[C@]5(C)CCCN5C2=O)C(=O)CCC(=O)N[C@@H](C)C(=O)N[C@H](CNC(=O)CCCCC[N+](C)(C)C)C(=O)N[C@@H](Cc2cccc(c2)CNC(=O)CO4)C(=O)N3)cc1", "system": "human, plasma", "setting": "oral, 40 mg, high-fat breakfast 30 min before, together with: sodium caprate 720 mg", "Tmax": "8.08 h"}
{"SMILES": "Cc1ncc2n1-c1ccc(Cl)cc1C(c1ccccc1F)=NC2", "system": "human, plasma", "setting": "oral, 2 mg, day 1", "Tmax": "0.5 h"}
{"SMILES": "CC(=O)c1c(C)c2cnc(Nc3ccc(C4CCN(CCS(C)(=O)=O)CC4)cn3)nc2n(C2CCCC2)c1=O", "system": "human, plasma", "setting": "oral, 50 mg twice daily, day 1, single dose, together with: letrozole", "Tmax": "2 h"}
{"SMILES": "N[C@@H](Cc1ccc(O)c(O)c1)C(=O)O", "test": "measured: carbidopa", "system": "healthy human volunteers, plasma", "setting": "subcutaneous, 24 h infusion, median, crossover", "Tmax": "18 h"}
{"SMILES": "N.N.O=C([O-])C1(C(=O)[O-])CCC1.[Pt+2]", "test": "measured: non-protein-bound platinum", "system": "human, plasma ultrafiltrate", "setting": "target AUC 2, median", "Tmax": "0.5 h"}
{"SMILES": "O=C(O)C(O)(c1cccs1)c1cccs1", "test": "measured: metabolite", "system": "human, plasma", "setting": "oral, 50 mg once daily, 5 days, median", "Tmax": "11.5 h"}
{"SMILES": "C=C(C)[C@@H]1CC[C@]2(NCCN3CCS(=O)(=O)CC3)CC[C@]3(C)[C@H](CC[C@@H]4[C@@]5(C)CC=C(C6=CC[C@@](COc7ncccc7C#N)(C(=O)O)CC6)C(C)(C)[C@@H]5CC[C@]43C)[C@@H]12", "system": "human, fasted", "setting": "oral, 100 mg tablet, median", "Tmax": "6 h"}
{"note": "A few entries again:"}
{"SMILES": "O=C(O)C(F)(F)C(F)(F)C(F)(F)C(F)(F)C(F)(F)C(F)(F)C(F)(F)F", "test": "two-compartment model", "system": "human, plasma", "setting": "oral, 50 mg weekly", "Tmax": "2 h"}
{"SMILES": "OCc1ncc2n1-c1ccc(Cl)cc1C(c1ccccc1F)=NC2", "system": "human, plasma", "setting": "7.5 mg midazolam, day 19, median, metabolite of midazolam, together with: midazolam 7.5 mg alone", "Tmax": "0.5 h"}
